Measurements of several laboratories.
Numbered parts are unrelated; each lists some results of a single study. Changes are numbered by the printed parent chain.

Study 1
Target: UBE2N UBC core domain (UniProt P61088)
Technique: yeast two-hybrid
Medium: yeast
Notes: mostly zero background
Reference: not given
Direction: higher = stronger interaction
B1: NEURL1 RING domain (UniProt O76050); chain VTPGLGQWSDECTICYEHAVDTVIYTCGHMCLCYACGLRLKKALHACCPICRRPIKDIIKT
B2: TRIM24 RING domain (UniProt O15164); chain EAARLNLLDTCAVCHQNIQSRAPKLLPCLHSFCQRCLPAPQRYLMLPAPMLGSAETPPPVPAPGSPVSGSSPFATQVGVIRCPVCSQECAERHII
B3: TRIML1 RING domain (UniProt Q8N9V2); chain LMENLREELTCFICLDYFSSPVTTECGHSFCLVCLLRSWEEHNTPLSCPECWRTLEGPHFQS
B4: TRIM40 RING domain (UniProt Q6P9F5); chain LQKDNQEEGVCPICQESLKEAVSTNCGHLFCRVCLTQHVEKASASGVFCCPLCRKPCSEEVLG
Target sequence (chain): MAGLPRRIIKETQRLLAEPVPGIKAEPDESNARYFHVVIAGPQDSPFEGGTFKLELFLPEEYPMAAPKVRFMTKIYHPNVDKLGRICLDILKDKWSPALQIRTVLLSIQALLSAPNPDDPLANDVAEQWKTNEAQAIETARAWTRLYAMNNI
Molecule | lacZ reporter activity
GAAPGPEAAECLVCSELALLVLFSPCQHRTVCEECARRMKKCIRCQVVVSKKLRPD (MIB2 RING domain (UniProt Q96AX9)) | 0
DHGAVGQEMCCPICCSEYVKGEVATELPCHHYFHKPCVSIWLQKSGTCPVCRCMFPPPL (PJA1 RING domain (UniProt Q8NG27)) | 0
B1 (NEURL1 RING domain) | 7560
PAELEVQASECVVCLEREAQMIFLNCGHVCCCQQCCQPLRTCPLCRQDIAQRLRIY (LRSAM1 RING domain (UniProt Q6UWE0)) | 3280
B2 (TRIM24 RING domain) | 0
QVDKAVFHMQSVKCLKCQEQKRAVLPCQHAALCELCAEGSECPICQPGRAHTLQS (UNK RING domain (UniProt Q9C0B0)) | 0
FQGDVDEDLICPICSGVLEEPVQAPHCEHAFCNACITQWFSQQQTCPVDRSVVTVAHLRP (RNF41 RING domain (UniProt Q9H4P4)) | 0
B3 (TRIML1 RING domain) | 0
B4 (TRIM40 RING domain) | 0

Study 2
Target: ABI1, truncated, D143A, DHFR fusion (Arabidopsis thaliana)
Technique: DHFR PCA, deep sequencing
Medium: yeast
Notes: methotrexate growth selection, single substitutions
Together with: (+)-ABA 0 µM
Reference: wild-type fitted maximum
Direction: higher = stronger binding
Starting sequence: PYL1, truncated, DHFR fusion (Arabidopsis thaliana); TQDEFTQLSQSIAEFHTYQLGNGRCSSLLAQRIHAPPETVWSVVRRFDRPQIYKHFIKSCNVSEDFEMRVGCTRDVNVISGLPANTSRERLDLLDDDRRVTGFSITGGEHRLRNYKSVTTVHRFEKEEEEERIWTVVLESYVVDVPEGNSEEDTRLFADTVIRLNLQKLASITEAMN; partner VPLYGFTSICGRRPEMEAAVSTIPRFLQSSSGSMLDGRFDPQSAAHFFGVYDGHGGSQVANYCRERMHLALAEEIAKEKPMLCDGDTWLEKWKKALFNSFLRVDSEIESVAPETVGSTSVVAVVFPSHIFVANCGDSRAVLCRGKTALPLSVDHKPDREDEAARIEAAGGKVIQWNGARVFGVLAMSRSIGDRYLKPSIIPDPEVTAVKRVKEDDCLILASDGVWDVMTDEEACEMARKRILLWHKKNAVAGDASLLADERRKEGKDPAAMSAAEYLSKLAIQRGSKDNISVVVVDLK
Change | relative binding score [%]
L164Y | -7.24
G21V | 18.4
D159H | -6.45
E147A | 11.7
R45S | 0.731
S9Y | 18.7
T86L | 19.4
S9H | 16.4
N149M | 57.5
F103T | -3.01
E139H | 5.27
S42Q | 30.5
E14V | 2.61

Study 3
Target: RNA binding protein fox-1 homolog 2, RRM domain, GST-SBP tag (RBFOX2, Homo sapiens, UniProt O43251-10, residues 100-194)
Technique: RNA Bind-n-Seq
Molecule type: RNA
Medium: in vitro
Tested at: 365 nM
Notes: natural RNA segment, single round, ends assumed
Reference: no-protein control
Direction: higher = stronger binding
All sequences stand within: GGGAGUUCUACAGUCCGACGAUC … UGGAAUUCUCGGGUGCCAA
Residues (chain): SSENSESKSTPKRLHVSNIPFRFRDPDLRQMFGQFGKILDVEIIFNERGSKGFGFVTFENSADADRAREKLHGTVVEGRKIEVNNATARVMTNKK
Strand | RBNS enrichment (R)
GGGUCAGGUAAAGCAUGAGAGAGACUCUCAGCGCCGCCGCUGCCGCUGCCAGGGUGAUCAUUCAUCAGUUUCGGCCACUAGAGACAGAAAACUACACUGCUAAGCCCUGG | 2.27
CAUCUCAAACCAUAUUCUGUGAAUCCAUCUCAUGGUCCACUCCUGGGCUGCGGAAGGUACAAGGCGAGGUUAUGGGGCUGCUCUUCACUUUUUGUUUUUAAAUGAAGACC | 0.332
CAGAUCUGUCUUUCCCAAAUGAAAGGUUAGUCCCAUAGACCACUGGCUAUUCAGGGAAAUUACUCUCUACCUCCCCAUGACAUGGAUGAUAAGUGUUGAGGGAUGAACAC | 0.468
UAGAGGACAUUGCUUUAAGCCCCAGUUUGUUUGUAGGGUUGAGUAUGAAAAAGCCCAUCUCCUGUGUCCCCAUUGCUCCUUCCCCUUAGCCUCGACAUUUCAAGUUGCGG | 2.93
UAUCAUCUGCUCCAGGAAGCCCCCUAGACUACCUCCUGAGUCUGGACAAAGCCUCCUGAUUCUACCUGGAUCACUCCUGUUAUGUGACAGUUAUGUGGUGGGUCCCUGCU | 0.382
AACAGAUUUCUUUUUCUUACUUUUUUUCCCCAUGAUCUAGAAACACAUGCCAAGAUUCUCAUGAGUUUUCUUACUUUGUCAUCCAUGUUCUUUUUCUAUUUGUAGGUCAA | 0.71
CCUAGACAGGUUACAGAUUUAAUUUUCACCUACCAAGGGACAGUCUCCUCCCUGGACAAGGCUCAGUGGACCAUCAGAUGGAGGAAGACUGGCCCCAUUGCUUGAGCCCC | 0.382
CCUCUGCCUCUGGCUCAGGUUGCUCAAAGCACAGAUCCCCUCUUAUCCCUGUCCCCAGGACCGAAACACAUAGCCUCAUUUCAAAGCGUAGCCAGGUUCCCUCUGCUUUC | 0.45

Study 4
Target: ATF3, bZIP domain (human)
Technique: DHFR protein complementation
Medium: yeast
Notes: single substitutions, most at no-binding floor
Reference: wild-type JUN-FOS pair
Direction: higher = stronger binding
Starting sequence: JUN, bZIP domain (human); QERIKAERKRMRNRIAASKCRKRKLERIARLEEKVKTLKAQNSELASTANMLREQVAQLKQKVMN; partner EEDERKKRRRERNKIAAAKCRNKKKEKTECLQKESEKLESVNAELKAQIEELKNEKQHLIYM
Change | binding fitness [natural log]
S43F | -0.171
A29V | -0.364
A40T | -0.0207
L45F | -0.58
S43N | -0.0621
K36M | -0.0132
S47V | -0.00211
T37K | -0.0505
R30H | -0.0769
L52P | -1.18
L52K | -1.52
T37V | -0.0566
A49F | -0.34
I28S | -0.293
K34Y | -0.207
A57H | -0.186
E44G | -0.413
R30C | -0.131

Study 5
Target: CCNE1, cyclin fold, Cln2 fusion (human)
Technique: yeast growth competition, sequencing
Medium: yeast
Notes: weak parent motif
Reference: not given
Direction: higher = stronger binding
Starting sequence: PKN2 docking peptide (human); DSTVTKLDFDLEP
Change | normalised enrichment score
T5A | -0.011
E12A | 0.165
D1A | 0.294
L7A | 0.0407
S2A | 0.176
F9A | -0.189
V4A | 0.0771

A few entries again (study 1):
Molecule | lacZ reporter activity
PAELEVQASECVVCLEREAQMIFLNCGHVCCCQQCCQPLRTCPLCRQDIAQRLRIY (LRSAM1 RING domain (UniProt Q6UWE0)) | 3280
B2 (TRIM24 RING domain) | 0
QVDKAVFHMQSVKCLKCQEQKRAVLPCQHAALCELCAEGSECPICQPGRAHTLQS (UNK RING domain (UniProt Q9C0B0)) | 0
FQGDVDEDLICPICSGVLEEPVQAPHCEHAFCNACITQWFSQQQTCPVDRSVVTVAHLRP (RNF41 RING domain (UniProt Q9H4P4)) | 0
